# Measured values of several laboratories.
# Lines come from different studies, so protocols differ. Numbers after ± are the reported error.
assay,test system,setting,concentration,SMILES
E-AB sensor,"male C57BL/6J mice, thalamus","intravenous, 35 mg/kg, 4 h",1.4 ± 0.4 µM,CN[C@H](CC(C)C)C(=O)N[C@H]1C(=O)N[C@@H](CC(N)=O)C(=O)N[C@H]2C(=O)N[C@H]3C(=O)N[C@H](C(=O)N[C@H](C(=O)O)c4cc(O)cc(O)c4-c4cc3ccc4O)[C@H](O)c3ccc(c(Cl)c3)Oc3cc2cc(c3O[C@@H]2O[C@H](CO)[C@@H](O)[C@H](O)[C@H]2O[C@H]2C[C@](C)(N)[C@H](O)[C@H](C)O2)Oc2ccc(cc2Cl)[C@H]1O
,"Wistar rat, medulla oblongata","oral, 10 mg/kg/day of BIA 10-2474, 4 h, repeated 5 days",31.1 ± 7.9 ng/g,CN(C(=O)n1cnc(-c2cccnc2)c1)C1CCCCC1
,"Swiss Webster mouse, female, fat","oral, 50 mg/kg, 8 h, 20% HPβCD vehicle",5.69 µM,O=C(N[C@H](Cc1c[nH]c2ccccc12)C(=O)Nc1ccncc1)c1ccc(-c2ccc(F)c(Cl)c2)cc1F
,"NOD-SCID mice, HCC1954 xenograft","intraperitoneal, 60 mg/kg once daily, 8 h",66 ng/mL,Cc1cc([C@@H](C)Nc2ccccc2C(=O)O)c2nc(N3CCC(F)(F)CC3)c(C#N)c(=O)n2c1
,"Swiss Webster mouse, female, liver","oral, 50 mg/kg, 8 h, 20% Kolliphor vehicle",4940 µM,O=C(N[C@H](Cc1c[nH]c2ccccc12)C(=O)Nc1ccncc1)c1ccc(-c2cc(C(F)(F)F)ccc2F)cc1F
,"female Sprague-Dawley rat, uterus homogenate","oral, 10 mg/kg, 8 h",48.3 ng/mL,CCc1c(-c2ccccc2)c(-c2ccccc2)nn1-c1ccccc1-c1cccc(OCC(=O)O)c1
,"Swiss Webster mouse, female, plasma","oral, 50 mg/kg, 8 h, 20% Kolliphor vehicle",2.08 µM,O=C(N[C@H](Cc1c[nH]c2ccccc12)C(=O)Nc1ccncc1)c1ccc(N2CCN(c3ccc(F)cc3F)CC2)cc1F
,"Wistar rat, pons","oral, 10 mg/kg/day of BIA 10-2474, 72 h, repeated 5 days",9.6 ± 0.5 ng/g,CN(C(=O)n1cnc(-c2ccc[n+]([O-])c2)c1)[C@H]1CC[C@H](O)CC1
,"Sprague-Dawley rat, male, skeletal muscle","oral, 30 mg/kg, 2 h",18.1 ng/g,COc1ccc2c(=O)n(C)c(-c3ccccc3)nc2c1
,"C57BL/6J mice, liver","oral, 15 mg/kg single, 1 h",2600 ng/mL,NC/C(=C\F)COc1cccc(Cn2c(=S)[nH]c(=O)c3[nH]cnc32)c1
